# Assay results gathered from unrelated publications.
# Every numbered part comes from another study and shows a few of its results, in no order. Positions count from the first letter of the parent shown.

# Study 1
# Target: Histone acetyltransferase KAT6A, both winged helices, GST fusion (KAT6A, Homo sapiens, UniProt Q92794, residues 1-181)
# Method: protein binding microarray
# Molecule type: double-stranded DNA, one strand shown
# Medium: in vitro
# Concentration: not given
# Setting: 8-mer, flanks averaged, mean of 2 arrays, mostly near background
# Reference: not given
# Reading: higher = stronger binding
# Construct (chain): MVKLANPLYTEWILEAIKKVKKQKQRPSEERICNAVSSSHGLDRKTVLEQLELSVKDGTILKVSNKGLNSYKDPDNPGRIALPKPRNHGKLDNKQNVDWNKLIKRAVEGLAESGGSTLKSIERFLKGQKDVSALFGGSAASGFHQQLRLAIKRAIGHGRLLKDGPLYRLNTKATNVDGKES
Sequence,E-score
AACCAGGG,-0.195
ACAACAAT,-0.178
ACTCTGCA,-0.2
CAACACGA,-0.0919
AACAACTG,-0.0133
AGGAGTAG,-0.14
TAGCTATA,-0.199

# Study 2
# Target: CCND3, cyclin fold, Cln2 fusion (human)
# Method: yeast growth competition, sequencing
# Medium: yeast
# Setting: weak parent motif
# Reference: not given
# Reading: higher = stronger binding
# Parent: BRCA2 docking peptide (human); PSIKRNLLNEFDR; partner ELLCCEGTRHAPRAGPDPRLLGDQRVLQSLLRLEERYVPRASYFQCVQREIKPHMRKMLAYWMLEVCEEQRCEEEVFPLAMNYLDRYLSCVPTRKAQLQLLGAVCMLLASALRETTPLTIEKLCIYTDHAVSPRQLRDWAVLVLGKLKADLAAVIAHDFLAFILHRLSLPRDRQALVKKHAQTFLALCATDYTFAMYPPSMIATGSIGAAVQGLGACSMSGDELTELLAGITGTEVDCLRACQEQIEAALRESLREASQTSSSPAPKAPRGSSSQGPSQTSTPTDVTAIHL
Change,normalised enrichment score
E10N,0.135
F11V,0.23
F11M,0.0302
L7V,0.0239
F11C,0.0478
F11L,-0.0202
N6Q,0.0458
R5S,0.12
N9S,0.149
R13N,0.0898
K4Y,0.107

# Study 3
# Target: RING finger protein unkempt homolog, zinc fingers 1-6, GST-SBP tag (UNK, Homo sapiens, UniProt Q9C0B0, residues 30-357)
# Method: RNA Bind-n-Seq
# Molecule type: RNA
# Medium: in vitro
# Concentration: not given
# Setting: RNA with constant flanks, human and mouse sites, ends assumed
# Reference: input RNA pool
# Reading: higher = stronger binding
# Constant ends, left off below: GGGAGUUCUACAGUCCGACGAUC … CAACAGAGGAUUGAGCAUCA
# Construct (chain): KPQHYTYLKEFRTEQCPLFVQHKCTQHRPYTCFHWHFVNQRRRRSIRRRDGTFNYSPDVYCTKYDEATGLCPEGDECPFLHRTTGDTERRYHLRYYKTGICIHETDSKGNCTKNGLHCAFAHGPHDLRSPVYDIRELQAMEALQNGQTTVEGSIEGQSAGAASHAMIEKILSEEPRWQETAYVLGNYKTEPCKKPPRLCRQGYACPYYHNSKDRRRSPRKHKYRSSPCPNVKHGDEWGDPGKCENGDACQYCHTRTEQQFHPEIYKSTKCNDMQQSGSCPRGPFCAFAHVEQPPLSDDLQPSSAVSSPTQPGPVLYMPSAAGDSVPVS
Sequence,bound/input enrichment
UCUUUAUACAGACUGAGGCUCAGUCUGCCUGCCCGUCUCUGGGGUGUUCCAUCUCAGCAUUAGGUCAGUUGGUUCUGUUGAGUGUCUUCAGGUCCACCUCCAGCUGGUGAUUAUUUCAGA,0.0955 ratio
UUUUAUGCUCCGACAAGUGCUGUGGAGAACAUACUGGAACACUUGGCGCGAGACAUUGACGUGGUUAGACCAAAUAUUGUGAAACACCCUCUGACCCAGGAAGUAAAAGAGUGUGACGGC,0.486 ratio
AUCAGAAGAGUGAAAUCUCAUAAAGAAUUUUUGAAUAAAACAACACACCAGCUUUUAUUUGUUAGGCAUCAGUUCAAAAUAGCUUUCUUCAGUGAGUUGAAACAAGAUACACAAAAUGCG,0.892 ratio
GCUGUGUCCCUGAGUGGUGGCUUUCCCUCCUGUCACGUGACAUCCCAUUCACUCAUCUACACUAGCCCAGUGCUCCCAUUGUCCCCUGCCUCCUCUGUAAUUUUUGCCCCUUCCAGGGUA,0.185 ratio
GUUUAUUCUCAGAGCACUGCUCUCACUCAUAAGCAGUCUUAUUAUUCCAUUGCCAAAUGUGUAGCUGCCCUUACUCGAGCUUGCCCUAAAGAGGGACCCGCCGUAGUAGGUCAGUUUAUU,0.185 ratio

# Mixed results
Substance,target,assay,system,conditions,scale,quantity,result
"PhoQ, residues 284 288 289 292 302 303 AGGCYF","PhoP, residues 12 14 15 18 19 TTLRV (Escherichia coli, UniProt P23836)","Sort-seq, item: YFP reporter",E. coli,"PhoQ-PhoP variant library, together with: 10 µM Mg2+","reference: high Mg2+ state, higher = stronger signaling",fold induction,6.96

# Some of these lines once more (study 3):
Sequence,bound/input enrichment
AUCAGAAGAGUGAAAUCUCAUAAAGAAUUUUUGAAUAAAACAACACACCAGCUUUUAUUUGUUAGGCAUCAGUUCAAAAUAGCUUUCUUCAGUGAGUUGAAACAAGAUACACAAAAUGCG,0.892 ratio
UUUUAUGCUCCGACAAGUGCUGUGGAGAACAUACUGGAACACUUGGCGCGAGACAUUGACGUGGUUAGACCAAAUAUUGUGAAACACCCUCUGACCCAGGAAGUAAAAGAGUGUGACGGC,0.486 ratio
